Experimental data collected from several papers.
Parts stem from different laboratories: compare values within a part only. Values joined by “and” are separate records of one study, mostly repeats; a detail may differ.

Study 1
Cell line: mouse MPNST tumor cells
Technique: high-content immunofluorescence imaging
Item: nuclear SOX9
Tested at: 10 µM
Time: 12 h
Setting: mean of 2 replicates
Baseline: DMSO control
Reading: higher = more nuclear SOX9
SMILES	nuclear SOX9 intensity
C[N+](C)(C)CCOC(N)=O	93.8 % of DMSO and 104 % of DMSO
C[C@]12CCC(=O)C=C1C=C[C@@H]1[C@@H]2CC[C@@]2(C)[C@H]1CC[C@@]21CCC(=O)O1	95.4 % of DMSO and 106 % of DMSO
CCC(C)C1OC2(CCC1C)CC1CC(CC=C(C)C(OC3CC(OC)C(OC4CC(OC)C(O)C(C)O4)C(C)O3)C(C)C=CC=C3COC4C(O)C(C)=CC(C(=O)O1)C34O)O2 (stereo not shown)	121 % of DMSO
CCCCC(F)(F)[C@@]1(O)CC[C@H]2[C@@H](CC(=O)[C@@H]2CCCCCCC(=O)O)O1	86.7 % of DMSO
CC1=C(C#N)C(=C(C#N)C#N)OC1(C)c1ccc(Cl)c(Cl)c1 (stereo not shown)	106 % of DMSO
CC1=C(/C=C/C(C)=C/C=C/C(C)=C\C(=O)O)C(C)(C)CCC1	111 % of DMSO
CC1(C)O[C@@H]2C[C@H]3[C@@H]4C[C@H](F)C5=CC(=O)C=C[C@]5(C)[C@@]4(F)[C@@H](O)C[C@]3(C)[C@]2(C(=O)CO)O1	68.9 % of DMSO
CCOC(=O)CCNc1cc(N2CCc3ccccc3CC2)nc(-c2cccnc2)n1	109 % of DMSO
Brc1c(NC2=NCCN2)ccc2nccnc12	90.9 % of DMSO and 99.3 % of DMSO
COc1ccc(Cl)cc1C(=O)NCCc1ccc(S(=O)(=O)NC(=O)NC2CCCCC2)cc1	123 % of DMSO and 105 % of DMSO
Cc1onc(-c2ccccc2)c1C(=O)N[C@@H]1C(=O)N2[C@@H]1SC(C)(C)[C@@H]2C(=O)O	97.6 % of DMSO
Cc1nc(=O)c2cc(CN(C)c3ccc(C(=O)N[C@@H](CCC(=O)O)C(=O)O)s3)ccc2[nH]1	110 % of DMSO
COc1ccc(C[C@H](NC(C)=O)C(=O)N[C@H]2[C@@H](O)[C@H](n3cnc4c(N(C)C)ncnc43)O[C@@H]2CO)cc1	95.7 % of DMSO
FC(F)(F)c1cc(NC(=S)Nc2ccc(Br)cc2-c2nn[nH]n2)cc(C(F)(F)F)c1	106 % of DMSO
CCNC(=O)[C@H]1O[C@@H](n2cnc3c(N)nc(NCCc4ccc(CCC(=O)O)cc4)nc32)[C@H](O)[C@@H]1O	100 % of DMSO
CO[C@H]1/C=C/O[C@@]2(C)Oc3c(C)c(O)c4c(O)c(c5c(nc6cc(C)ccn65)c4c3C2=O)NC(=O)/C(C)=C\C=C\[C@H](C)[C@H](O)[C@@H](C)[C@@H](O)[C@@H](C)[C@H](OC(C)=O)[C@@H]1C	99.3 % of DMSO
O=C(C=Cc1ccccc1)NC(NC(=S)Nc1ccc(Cl)cc1)C(Cl)(Cl)Cl (stereo not shown)	112 % of DMSO
CCCc1nc(C)c2c(=O)nc(-c3cc(S(=O)(=O)N4CCN(CC)CC4)ccc3OCC)[nH]n12	120 % of DMSO
COc1ccccc1Nc1nc(-c2sc(NC(C)=O)nc2C)cs1	113 % of DMSO
CON(C)C(=O)[C@H](O)[C@H](Cc1ccccc1)NC(=O)c1cc2cc(Cl)ccc2[nH]1	109 % of DMSO

Study 2
SMILES: Nc1nc(Nc2ccc(S(N)(=O)=O)cc2)nn1C(=O)c1c(F)cccc1F
Observed: enzyme activity
Mode: inhibitor
Tested at: 0.5 µM
Baseline: control
target	remaining activity
Megakaryocyte-associated tyrosine-protein kinase (MATK, Homo sapiens, UniProt P42679)	104%
MAP/microtubule affinity-regulating kinase 3 (MARK3, Homo sapiens, UniProt P27448)	67.6%
Insulin receptor (INSR, Homo sapiens, UniProt P06213)	94.9%
Serine/threonine-protein kinase Nek11 (NEK11, Homo sapiens, UniProt Q8NG66)	95.8%
Serine/threonine-protein kinase 25 (STK25, Homo sapiens, UniProt O00506)	82.3%
Serine/threonine-protein kinase N1 (PKN1, Homo sapiens, UniProt Q16512)	89.7%
Tyrosine-protein kinase Fer (FER, Homo sapiens, UniProt P16591)	82%
Serine/threonine-protein kinase NLK (NLK, Homo sapiens, UniProt Q9UBE8)	86%
Proto-oncogene tyrosine-protein kinase Src (SRC, Homo sapiens, UniProt P12931)	76.3%
ALK tyrosine kinase receptor (ALK, Homo sapiens, UniProt Q9UM73)	90.1%
Tyrosine-protein kinase ITK/TSK (ITK, Homo sapiens, UniProt Q08881)	105%
Vascular endothelial growth factor receptor 3 (FLT4, Homo sapiens, UniProt P35916)	38%
Tyrosine-protein kinase Fgr (FGR, Homo sapiens, UniProt P09769)	63.5%
Serine/threonine-protein kinase TAO3 (TAOK3, Homo sapiens, UniProt Q9H2K8)	39.9%
PAS domain-containing serine/threonine-protein kinase (PASK, Homo sapiens, UniProt Q96RG2)	91.1%
Tyrosine-protein kinase Fyn (FYN, Homo sapiens, UniProt P06241)	78.6%
cAMP-dependent protein kinase catalytic subunit PRKX (PRKX, Homo sapiens, UniProt P51817)	89%
Cyclin-dependent kinase 3, with cyclin E (CDK3, Homo sapiens, UniProt Q00526)	32.4%

Study 3
SMILES: COc1cc(C(=O)N2CCC(N3CCN(C)CC3)CC2)ccc1Nc1ncc2c(n1)N(C)c1ccccc1C(=O)N2C
Technique: KINOMEscan
Tested at: 10 µM
Reading: lower = stronger binding
target	binding (% of control) [%]
SNARK	47
KIT	100
JNK2	94
PKAC-beta	100
ERK2	85
ABL1(F317I)-nonphosphorylated	15
FAK	34
ABL1(T315I)-phosphorylated	58
ABL1(E255K)-phosphorylated	80
MEK1	100
PKAC-alpha	100
ABL1(Y253F)-phosphorylated	89
YES	100

Study 4
Compound: CO[C@@H](C)c1c(Nc2ccc([C@@H](N(C)C(=O)C3CCS(=O)(=O)CC3)C(F)(F)F)cc2)cnc2cc(Cl)nn12
Observed: cell-free assay
Technique: competition with immobilised ligand
Tested at: 1 µM
target	remaining binding [%]
RAC-beta serine/threonine-protein kinase (AKT2, Homo sapiens, UniProt P31751)	91
Serine/threonine-protein kinase Nek5 (NEK5, Homo sapiens, UniProt Q6P3R8)	88
Serine/threonine-protein kinase MRCK alpha (CDC42BPA, Homo sapiens, UniProt Q5VT25)	94
SRSF protein kinase 2 (SRPK2, Homo sapiens, UniProt P78362)	99
MAP kinase-interacting serine/threonine-protein kinase 1 (MKNK1, Homo sapiens, UniProt Q9BUB5)	100
Serine/threonine-protein kinase ICK (CILK1, Homo sapiens, UniProt Q9UPZ9)	96
Receptor-type tyrosine-protein kinase FLT3 (FLT3, Homo sapiens, UniProt P36888, ITD)	66
Phosphatidylinositol 4,5-bisphosphate 3-kinase catalytic subunit alpha isoform (PIK3CA, Homo sapiens, UniProt P42336, E545K)	62
Ribosomal protein S6 kinase alpha-2, N-terminal kinase domain (RPS6KA2, Homo sapiens, UniProt Q15349)	100
Serine/threonine-protein kinase TAO2 (TAOK2, Homo sapiens, UniProt Q9UL54)	94
Mitogen-activated protein kinase 14 (MAPK14, Homo sapiens, UniProt Q16539)	83
SRSF protein kinase 1 (SRPK1, Homo sapiens, UniProt Q96SB4)	95
Serine/threonine-protein kinase VRK2 (VRK2, Homo sapiens, UniProt Q86Y07)	100
Serine/threonine-protein kinase SIK2 (SIK2, Homo sapiens, UniProt Q9H0K1)	92
Serine/threonine-protein kinase WNK1 (WNK1, Homo sapiens, UniProt Q9H4A3)	98
Serine/threonine-protein kinase 36 (STK36, Homo sapiens, UniProt Q9NRP7)	94

For quick reference, copied from above (study 1):
SMILES	nuclear SOX9 intensity
CCC(C)C1OC2(CCC1C)CC1CC(CC=C(C)C(OC3CC(OC)C(OC4CC(OC)C(O)C(C)O4)C(C)O3)C(C)C=CC=C3COC4C(O)C(C)=CC(C(=O)O1)C34O)O2 (stereo not shown)	121 % of DMSO
CCCCC(F)(F)[C@@]1(O)CC[C@H]2[C@@H](CC(=O)[C@@H]2CCCCCCC(=O)O)O1	86.7 % of DMSO
CC1=C(C#N)C(=C(C#N)C#N)OC1(C)c1ccc(Cl)c(Cl)c1 (stereo not shown)	106 % of DMSO
CC1=C(/C=C/C(C)=C/C=C/C(C)=C\C(=O)O)C(C)(C)CCC1	111 % of DMSO
CC1(C)O[C@@H]2C[C@H]3[C@@H]4C[C@H](F)C5=CC(=O)C=C[C@]5(C)[C@@]4(F)[C@@H](O)C[C@]3(C)[C@]2(C(=O)CO)O1	68.9 % of DMSO
CCOC(=O)CCNc1cc(N2CCc3ccccc3CC2)nc(-c2cccnc2)n1	109 % of DMSO
Brc1c(NC2=NCCN2)ccc2nccnc12	90.9 % of DMSO and 99.3 % of DMSO
COc1ccc(Cl)cc1C(=O)NCCc1ccc(S(=O)(=O)NC(=O)NC2CCCCC2)cc1	123 % of DMSO and 105 % of DMSO
Cc1onc(-c2ccccc2)c1C(=O)N[C@@H]1C(=O)N2[C@@H]1SC(C)(C)[C@@H]2C(=O)O	97.6 % of DMSO
